Measured values gathered from unrelated publications.
Each line is one published result; not all experiments were run side by side. ± gives the spread as reported.
H2-D1 17: H-2 class I histocompatibility antigen, D-B alpha chain, 17 (H2-D1, Mus musculus, UniProt P01899)
Tumor necrosis factor receptor superfamily member 9/Nectin-4: Tumor necrosis factor receptor superfamily member 9/Nectin-4 (Homo sapiens, UniProt Q07011+Q96NY8)
Chain of UniProt Q07011 (whole entry, looked up): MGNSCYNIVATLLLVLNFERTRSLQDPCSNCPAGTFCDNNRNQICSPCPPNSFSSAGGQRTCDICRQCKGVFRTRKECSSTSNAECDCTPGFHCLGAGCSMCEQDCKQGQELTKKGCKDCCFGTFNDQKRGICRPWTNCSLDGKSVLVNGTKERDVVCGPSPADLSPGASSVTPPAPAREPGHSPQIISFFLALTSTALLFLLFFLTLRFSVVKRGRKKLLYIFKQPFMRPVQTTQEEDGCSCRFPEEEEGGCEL
Chain of UniProt Q96NY8 (whole entry, looked up): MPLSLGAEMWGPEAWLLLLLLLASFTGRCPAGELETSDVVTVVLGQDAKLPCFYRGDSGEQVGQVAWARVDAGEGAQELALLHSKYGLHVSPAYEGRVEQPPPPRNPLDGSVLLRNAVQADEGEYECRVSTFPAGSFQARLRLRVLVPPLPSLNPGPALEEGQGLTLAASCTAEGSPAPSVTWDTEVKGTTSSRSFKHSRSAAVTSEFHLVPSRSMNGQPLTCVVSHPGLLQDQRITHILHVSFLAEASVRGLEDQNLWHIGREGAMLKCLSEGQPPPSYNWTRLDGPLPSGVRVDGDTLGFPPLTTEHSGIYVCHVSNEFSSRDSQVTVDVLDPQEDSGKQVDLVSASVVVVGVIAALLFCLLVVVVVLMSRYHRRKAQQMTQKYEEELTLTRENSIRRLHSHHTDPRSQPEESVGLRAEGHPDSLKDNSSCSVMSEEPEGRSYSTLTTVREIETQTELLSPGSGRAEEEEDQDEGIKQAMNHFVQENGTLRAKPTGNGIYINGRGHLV
sdiA: Regulatory protein SdiA (sdiA, Escherichia coli, UniProt P07026)
Chain of UniProt P07026 (whole entry, looked up): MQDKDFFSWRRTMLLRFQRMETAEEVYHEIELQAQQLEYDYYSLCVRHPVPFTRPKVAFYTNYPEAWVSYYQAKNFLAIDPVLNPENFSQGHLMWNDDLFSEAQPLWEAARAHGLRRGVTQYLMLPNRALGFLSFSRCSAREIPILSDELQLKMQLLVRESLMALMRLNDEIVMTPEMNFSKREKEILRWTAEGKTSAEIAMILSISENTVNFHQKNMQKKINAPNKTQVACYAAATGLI
Chain of UniProt P30536 (whole entry, looked up): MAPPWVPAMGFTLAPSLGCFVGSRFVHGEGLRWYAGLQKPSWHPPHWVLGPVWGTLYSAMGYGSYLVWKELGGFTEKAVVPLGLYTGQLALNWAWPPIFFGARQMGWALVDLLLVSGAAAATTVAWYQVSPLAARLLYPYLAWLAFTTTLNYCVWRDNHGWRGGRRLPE
Chain of UniProt P07700 (whole entry, unmodified, looked up): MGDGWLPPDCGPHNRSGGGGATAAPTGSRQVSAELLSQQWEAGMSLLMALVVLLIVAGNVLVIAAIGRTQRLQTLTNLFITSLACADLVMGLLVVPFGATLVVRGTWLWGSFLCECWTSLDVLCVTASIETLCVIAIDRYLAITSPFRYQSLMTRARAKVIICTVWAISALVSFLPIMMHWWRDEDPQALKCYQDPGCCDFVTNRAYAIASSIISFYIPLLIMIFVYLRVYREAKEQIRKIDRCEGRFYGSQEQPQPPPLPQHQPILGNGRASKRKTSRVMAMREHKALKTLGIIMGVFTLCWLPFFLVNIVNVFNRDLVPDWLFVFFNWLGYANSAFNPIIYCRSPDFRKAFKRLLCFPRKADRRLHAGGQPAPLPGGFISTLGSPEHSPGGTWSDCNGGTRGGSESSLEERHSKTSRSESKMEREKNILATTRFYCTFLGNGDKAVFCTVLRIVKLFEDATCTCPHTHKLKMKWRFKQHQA
Chain of UniProt P50750 (whole entry, looked up): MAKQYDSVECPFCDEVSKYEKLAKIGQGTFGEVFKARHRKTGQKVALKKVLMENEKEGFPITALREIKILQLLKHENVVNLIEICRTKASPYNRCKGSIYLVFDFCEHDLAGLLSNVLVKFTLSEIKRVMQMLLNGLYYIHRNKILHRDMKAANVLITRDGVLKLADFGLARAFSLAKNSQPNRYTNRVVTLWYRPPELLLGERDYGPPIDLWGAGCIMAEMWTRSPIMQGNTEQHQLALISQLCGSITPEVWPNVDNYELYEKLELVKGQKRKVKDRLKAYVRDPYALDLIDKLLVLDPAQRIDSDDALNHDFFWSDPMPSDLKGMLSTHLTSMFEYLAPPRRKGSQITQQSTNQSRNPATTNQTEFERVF
Chain of UniProt P35372 (whole entry, looked up): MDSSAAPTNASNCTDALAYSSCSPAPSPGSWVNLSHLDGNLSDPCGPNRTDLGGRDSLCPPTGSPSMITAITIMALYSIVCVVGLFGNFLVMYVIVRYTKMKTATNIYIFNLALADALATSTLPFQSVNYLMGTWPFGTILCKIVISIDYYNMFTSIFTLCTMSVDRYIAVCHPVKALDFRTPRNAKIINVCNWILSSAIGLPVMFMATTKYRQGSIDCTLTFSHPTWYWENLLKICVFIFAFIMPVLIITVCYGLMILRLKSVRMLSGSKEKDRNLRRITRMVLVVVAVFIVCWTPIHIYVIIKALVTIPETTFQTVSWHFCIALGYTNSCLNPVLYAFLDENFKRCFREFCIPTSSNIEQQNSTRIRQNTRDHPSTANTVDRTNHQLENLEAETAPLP

`CC(CCc1ccc(O)cc1)NCCc1ccc(O)c(O)c1` (stereo not shown) has an EC50 of 0.162 µM (ADRB1 (Meleagris gallopavo, UniProt P07700, C116L); CRE-SPAP reporter gene, agonist; CHO cells).
`CC[C@H](C)[C@H](NC(=O)[C@H](C)NC(=O)[C@H](C)NC(=O)[C@@H](NC(=O)[C@H](C)NC(=O)[C@H](CC(N)=O)NC(=O)[C@H](Cc1c[nH]c2ccccc12)NC(=O)[C@@H](NC(=O)[C@H](CO)NC(=O)[C@@H](N)CO)C(C)C)[C@@H](C)O)C(=O)O` gave an EC50 of 4 µM (H2-D1 17; H-2D stabilisation, flow cytometry; RMA-S TAP-deficient; overnight).
For `CCCC[C@@H]1NC(=O)[C@H](Cc2ccc(O)cc2)NC(=O)[C@@H]2CCCN2C(=O)[C@H](CC(N)=O)NC(=O)[C@H](C)NC(=O)[C@H](Cc2ccccc2)NC(=O)[C@@H]2CSCCC(=O)N3CN(CN(C3)C(=O)CCSC[C@H](NC(C)=O)C(=O)N[C@@H](CC(C)(C)C)C(=O)N3CCC[C@H]3C(=O)N[C@@H](CCC(=O)O)C(=O)N[C@H](CCCCNC(=O)CCc3cn(CCOCCOCCOCCN(CCOCCOCCOCCC(=O)N[C@H]4CSCCC(=O)N5CN6CN(C5)C(=O)CCSC[C@H](NC(=O)[C@@H](CC(=O)O)NC(=O)[C@H](Cc5cccc7ccccc57)NC(=O)[C@@H]5CCCN5C4=O)C(=O)N[C@@H](CCSC)C(=O)N[C@@H](CCCCNC(=N)N)C(=O)N[C@@H](CC(=O)O)C(=O)N[C@@H](Cc4c[nH]c5ccccc45)C(=O)N[C@@H](CO)C(=O)N[C@@H]([C@@H](C)O)C(=O)N4CCC[C@H]4C(=O)N4C[C@H](O)C[C@H]4C(=O)N[C@@H](Cc4c[nH]c5ccccc45)C(=O)N[C@H](C(N)=O)CSCCC6=O)CCOCCOCCOCCn4cc(CCC(=O)NCCCC[C@H]5NC(=O)[C@H](CCC(=O)O)NC(=O)[C@@H]6CCCN6C(=O)[C@H](CC(C)(C)C)NC(=O)[C@@H](NC(C)=O)CSCCC(=O)N6CN7CN(C6)C(=O)CCSC[C@H](NC(=O)[C@H](Cc6ccc(O)cc6)NC(=O)[C@@H]6CCCN6C5=O)C(=O)N[C@@H](Cc5ccccc5)C(=O)N[C@@H](C)C(=O)N[C@@H](CC(N)=O)C(=O)N5CCC[C@H]5C(=O)N[C@@H](Cc5ccc(O)cc5)C(=O)N[C@@H](CCCC)C(=O)N[C@H](C(N)=O)CSCCC7=O)nn4)nn3)C(=O)N3CCC[C@H]3C(=O)N[C@@H](Cc3ccc(O)cc3)C(=O)N2)C(=O)CCSC[C@@H](C(N)=O)NC1=O`, the EC50 was 0.0141 µM (Tumor necrosis factor receptor superfamily member 9/Nectin-4; reporter gene, agonist; HT-1376 coculture with reporter cells).
For `CC[C@H](C)[C@H](NC(=O)[C@H](Cc1ccccc1)NC(=O)[C@H](CCC(=O)O)NC(=O)[C@H](CCCNC(=N)N)NC(=O)[C@H](C)NC(=O)[C@H](C)NC(=O)[C@H](CCC(N)=O)NC(=O)[C@H](CCC(=O)O)NC(=O)[C@H](CCC(=O)O)NC(=O)[C@H](CC(C)C)NC(=O)[C@H](Cc1ccc(O)cc1)NC(=O)[C@H](CO)NC(=O)[C@H](CO)NC(=O)[C@@H](NC(=O)[C@H](CC(=O)O)NC(=O)[C@H](CO)NC(=O)[C@@H](NC(=O)[C@H](Cc1ccccc1)NC(=O)[C@@H](NC(=O)CNC(=O)[C@H](CCC(=O)O)NC(=O)[C@H](C)NC(=O)CCc1c[nH]cn1)[C@@H](C)O)[C@@H](C)O)C(C)C)C(=O)N[C@@H](C)C(=O)N[C@@H](Cc1c[nH]c2ccccc12)C(=O)N[C@@H](CC(C)C)C(=O)N[C@H](C(=O)N[C@@H](CCCNC(=N)N)C(=O)NCC(=O)N[C@@H](CCCNC(=N)N)C(=O)N[C@@H](CCCCNC(=O)COCCOCCNC(=O)COCCOCCNC(=O)CC[C@H](NC(=O)CCCCCCCCCCCCCCCCC(=O)O)C(=O)O)C(=O)NCC(=O)NCC(=O)N[C@@H](CO)C(=O)N[C@@H](CCCCNc1c(NCCCCCN(O)C(=O)CCC(=O)NCCCCCN(O)C(=O)CCC(=O)NCCCCCN(O)C(C)=O)c(=O)c1=O)C(=O)O)C(C)C` [zirconium-89 labelled], the tissue uptake was 0.24 %ID/g (gamma counting; rat, colon content; intravenous, 3 nmol/kg, 24 h).
With `C[C@H]1CN(c2n[nH]c3nc(N[C@H]4CC[C@H](NS(=O)(=O)CCC(F)(F)F)CC4)ncc23)CCO1` the remaining binding was 1.02 (CDK9 (Homo sapiens, UniProt P50750); Kinobeads competition; HEK293, K562, placenta lysate; 0.032 µM, unit not given; baseline: vehicle).
With `CCCCCCCC(=O)CC(=O)N[C@H]1CCOC1=O` the EC50 was 0.00389 µM (sdiA).
Under “grade 3 Anorexia”, `COc1cc2c(Oc3ccc4[nH]c(C)cc4c3F)ccnc2cc1OCC1(N)CC1` is recorded as 0% (paediatric recurrent refractory sarcoma; 8 mg/kg).
`CCCC[C@@H]1NC(=O)[C@H](Cc2ccc(O)cc2)NC(=O)[C@@H]2CCCN2C(=O)[C@H](CC(=O)O)NC(=O)[C@H](C)NC(=O)[C@H](Cc2ccccc2)NC(=O)[C@@H]2CSCCC(=O)N3CN(CN(C3)C(=O)CCSC[C@@H](C(=O)N[C@@H](C)C(N)=O)NC1=O)C(=O)CCSC[C@H](NC(C)=O)C(=O)N[C@@H](CC(C)(C)C)C(=O)N1CCC[C@H]1C(=O)N[C@@H](CCC(=O)O)C(=O)N[C@H](CCCCNC(=O)CCc1cn(CCOCCOCCOCCOCCOCCC(=O)NCCCC[C@H]3NC(=O)[C@H](Cc4cccc5ccccc45)NC(=O)[C@@H]4CCCN4C(=O)[C@@H](NC(C)=O)CSCCC(=O)N4CN5CN(C4)C(=O)CCSC[C@H](NC3=O)C(=O)N[C@@H](CCSC)C(=O)N[C@@H](CCCCNC(=N)N)C(=O)N[C@@H](CC(=O)O)C(=O)N[C@@H](Cc3c[nH]c4ccccc34)C(=O)N[C@@H](CO)C(=O)N[C@@H]([C@@H](C)O)C(=O)N3CCC[C@H]3C(=O)N3C[C@H](O)C[C@H]3C(=O)N[C@@H](Cc3c[nH]c4ccccc34)C(=O)N[C@H](C(N)=O)CSCCC5=O)nn1)C(=O)N1CCC[C@H]1C(=O)N[C@@H](Cc1ccc(O)cc1)C(=O)N2` gave an EC50 of 0.00161 µM (Tumor necrosis factor receptor superfamily member 9/Nectin-4; reporter gene, agonist; HT-1376 coculture with reporter cells).
With `CCCCCCCCCCCC(=O)N[C@H]1CCOC1=O` the EC50 was 0.0158 µM (sdiA).
The EC50 of `CC[C@@H]1CN2CCc3c([nH]c4cccc(OC)c34)[C@@H]2C[C@@H]1C(=CO)C(=O)OC` is reported as 0.995 ± 0.344 µM (OPRM1 (Homo sapiens, UniProt P35372); G protein activation, agonist, BRET; human cells).
The IC50 of `COc1cc(Nc2ncc(F)c(Nc3ccc4c(n3)NC(=O)C(C)(C)O4)n2)cc(OC)c1OC` is reported as over 10 µM (TSPO (Homo sapiens, UniProt P30536); binding).
`CC[C@H](C)[C@H](NC(=O)[C@H](C)NC(=O)[C@@H](NC(=O)[C@@H](NC(=O)[C@H](C)NC(=O)[C@H](CC(N)=O)NC(=O)[C@H](C)NC(=O)[C@@H](NC(=O)[C@H](CO)NC(=O)[C@@H](N)CO)C(C)C)[C@@H](C)O)[C@@H](C)O)C(=O)O` has an EC50 of 2 µM (H2-D1 17; H-2D stabilisation, flow cytometry; RMA-S TAP-deficient; overnight).
`CCCC[C@@H]1NC(=O)[C@H](Cc2ccc(O)cc2)NC(=O)[C@@H]2CCCN2C(=O)[C@H](CC(=O)O)NC(=O)[C@H](C)NC(=O)[C@H](Cc2ccccc2)NC(=O)[C@@H]2CSCCC(=O)N3CN(CN(C3)C(=O)CCSC[C@H](NC(C)=O)C(=O)N[C@@H](CC(C)(C)C)C(=O)N[C@@H](CCC(=O)O)C(=O)N[C@@H](CCC(=O)O)C(=O)N[C@H](CCCCNC(=O)CCc3cn(CCOCCOCCOCCN(CCOCCOCCOCCC(=O)N[C@H]4CSCCC(=O)N5CN6CN(C5)C(=O)CCSC[C@H](NC(=O)[C@@H](CC(=O)O)NC(=O)[C@H](Cc5cccc7ccccc57)NC(=O)[C@@H]5CCCN5C4=O)C(=O)N[C@@H](CCSC)C(=O)N[C@@H](CCCCNC(=N)N)C(=O)N[C@@H](CC(=O)O)C(=O)N[C@@H](Cc4c[nH]c5ccccc45)C(=O)N[C@@H](CO)C(=O)N[C@@H]([C@@H](C)O)C(=O)N4CCC[C@H]4C(=O)N4C[C@H](O)C[C@H]4C(=O)N[C@@H](Cc4c[nH]c5ccccc45)C(=O)N[C@H](C(N)=O)CSCCC6=O)CCOCCOCCOCCn4cc(CCC(=O)NCCCC[C@H]5NC(=O)[C@H](CCC(=O)O)NC(=O)[C@H](CCC(=O)O)NC(=O)[C@H](CC(C)(C)C)NC(=O)[C@@H](NC(C)=O)CSCCC(=O)N6CN7CN(C6)C(=O)CCSC[C@H](NC(=O)[C@H](Cc6ccc(O)cc6)NC(=O)[C@@H]6CCCN6C5=O)C(=O)N[C@@H](Cc5ccccc5)C(=O)N[C@@H](C)C(=O)N[C@@H](CC(=O)O)C(=O)N5CCC[C@H]5C(=O)N[C@@H](Cc5ccc(O)cc5)C(=O)N[C@@H](CCCC)C(=O)N[C@H](C(N)=O)CSCCC7=O)nn4)nn3)C(=O)N3CCC[C@H]3C(=O)N[C@@H](Cc3ccc(O)cc3)C(=O)N2)C(=O)CCSC[C@@H](C(N)=O)NC1=O` gave an EC50 of 0.00034 µM (Tumor necrosis factor receptor superfamily member 9/Nectin-4; reporter gene, agonist; HT-1376 coculture with reporter cells).

For quick reference, copied from above:
For `CC[C@H](C)[C@H](NC(=O)[C@H](Cc1ccccc1)NC(=O)[C@H](CCC(=O)O)NC(=O)[C@H](CCCNC(=N)N)NC(=O)[C@H](C)NC(=O)[C@H](C)NC(=O)[C@H](CCC(N)=O)NC(=O)[C@H](CCC(=O)O)NC(=O)[C@H](CCC(=O)O)NC(=O)[C@H](CC(C)C)NC(=O)[C@H](Cc1ccc(O)cc1)NC(=O)[C@H](CO)NC(=O)[C@H](CO)NC(=O)[C@@H](NC(=O)[C@H](CC(=O)O)NC(=O)[C@H](CO)NC(=O)[C@@H](NC(=O)[C@H](Cc1ccccc1)NC(=O)[C@@H](NC(=O)CNC(=O)[C@H](CCC(=O)O)NC(=O)[C@H](C)NC(=O)CCc1c[nH]cn1)[C@@H](C)O)[C@@H](C)O)C(C)C)C(=O)N[C@@H](C)C(=O)N[C@@H](Cc1c[nH]c2ccccc12)C(=O)N[C@@H](CC(C)C)C(=O)N[C@H](C(=O)N[C@@H](CCCNC(=N)N)C(=O)NCC(=O)N[C@@H](CCCNC(=N)N)C(=O)N[C@@H](CCCCNC(=O)COCCOCCNC(=O)COCCOCCNC(=O)CC[C@H](NC(=O)CCCCCCCCCCCCCCCCC(=O)O)C(=O)O)C(=O)NCC(=O)NCC(=O)N[C@@H](CO)C(=O)N[C@@H](CCCCNc1c(NCCCCCN(O)C(=O)CCC(=O)NCCCCCN(O)C(=O)CCC(=O)NCCCCCN(O)C(C)=O)c(=O)c1=O)C(=O)O)C(C)C` [zirconium-89 labelled], the tissue uptake was 0.24 %ID/g (gamma counting; rat, colon content; intravenous, 3 nmol/kg, 24 h).
